Measured values gathered from unrelated publications.
A part holds a random share of what one study measured. Changes are numbered by the printed parent chain.

Study 1 — technique: protein binding microarray; form: double-stranded DNA, one strand shown; matrix: in vitro; tested at: not given; relative to: not given; direction: higher = stronger binding; endpoint: E-score
Target: Histone acetyltransferase KAT6A, winged helix 2, GST fusion (KAT6A, Homo sapiens, UniProt Q92794, residues 85-181)
Setting: 8-mer, flanks averaged, mean of 2 arrays, mostly near background
Construct (chain): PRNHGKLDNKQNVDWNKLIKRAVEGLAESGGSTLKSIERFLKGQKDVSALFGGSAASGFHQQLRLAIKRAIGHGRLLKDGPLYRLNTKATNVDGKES
CAACAAGC: 0.051
ATACTAAG: -0.0112
CATCGCGC: 0.127
GTATTGAC: -0.203
CAACATTG: -0.0969
TATGGCAA: 0.0292
CTTGTGAC: -0.0321
ACAACGTC: -0.195
GACTGCTA: -0.119
CTCCTAAA: -0.136
AACCGCAC: 0.103
GGGTCCGA: 0.108
CCTTGTGC: -0.0552
CGATGACG: 0.0279
AGGCGATA: -0.022
AGATGCAG: -0.0344
TATAGAGA: -0.082
ATCAAATA: -0.115

Study 2 — technique: DHFR PCA, deep sequencing; matrix: yeast; with: (+)-ABA 1.4 µM; relative to: wild-type fitted maximum; direction: higher = stronger binding; endpoint: relative binding score
Target: ABI1, truncated, D143A, DHFR fusion (Arabidopsis thaliana)
Setting: methotrexate growth selection, single substitutions
Starting sequence: PYL1, truncated, DHFR fusion (Arabidopsis thaliana); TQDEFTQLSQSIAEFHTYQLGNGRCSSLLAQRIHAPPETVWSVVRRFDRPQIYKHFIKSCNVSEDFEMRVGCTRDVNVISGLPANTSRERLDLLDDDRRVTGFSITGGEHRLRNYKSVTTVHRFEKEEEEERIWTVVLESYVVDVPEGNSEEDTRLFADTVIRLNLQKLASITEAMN; partner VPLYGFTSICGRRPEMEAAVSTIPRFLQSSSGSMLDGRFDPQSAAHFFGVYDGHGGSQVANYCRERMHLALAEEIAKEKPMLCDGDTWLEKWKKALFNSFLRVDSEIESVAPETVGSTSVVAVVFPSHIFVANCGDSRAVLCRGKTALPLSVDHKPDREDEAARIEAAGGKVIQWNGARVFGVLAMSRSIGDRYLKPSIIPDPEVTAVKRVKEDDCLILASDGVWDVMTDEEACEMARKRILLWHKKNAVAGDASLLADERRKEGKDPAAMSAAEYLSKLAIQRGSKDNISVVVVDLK
I12A: -4.41%
H55D: 13.5%
M68S: 1.85%
D95A: 0.719%
T173Q: -3.6%
F157W: 9.43%
W41A: -8.77%
T160S: 10.2%
T86C: 59.1%
F66D: 25.5%
E128D: 74.9%
R49V: 16.5%
A35R: -10.3%
Y141M: 1.83%
T106A: 2.86%
T119M: 27.9%
T17Y: -15.3%
F124Q: 23.6%
V43A: 7.27%
W134F: 59%
V76A: 1.33%
Y115C: 3.55%
R111H: -1.12%
R155K: 54.7%

Study 3 — target: CEP164, C-terminal peptide (human); technique: DHFR complementation, deep sequencing; matrix: yeast; relative to: wild type; direction: higher = weaker binding; endpoint: binding free energy change
Setting: single substitutions, model-inferred values
Starting sequence: PDZK1, PDZ domain 2 (human); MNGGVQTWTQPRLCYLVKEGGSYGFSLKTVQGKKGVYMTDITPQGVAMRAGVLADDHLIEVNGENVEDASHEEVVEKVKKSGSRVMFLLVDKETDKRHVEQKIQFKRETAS; partner HNRVKVYRF
V61K: 1.24 kcal/mol
N62Y: 0.909 kcal/mol
G4I: 0.0986 kcal/mol
D95A: -0.279 kcal/mol
K96W: 0.0758 kcal/mol
N62G: 1 kcal/mol
K96Q: 0.0147 kcal/mol
T39P: 1.21 kcal/mol
D91W: 0.07 kcal/mol
E73W: -0.0193 kcal/mol
V66L: 0.273 kcal/mol
L58W: 0.955 kcal/mol
L89Y: 1.46 kcal/mol
T9W: 0.114 kcal/mol
G45Q: 0.823 kcal/mol
E60A: -0.194 kcal/mol
F25L: 0.794 kcal/mol
S22L: -0.122 kcal/mol
G35R: 0.221 kcal/mol
K92D: -0.0532 kcal/mol
G82F: 0.613 kcal/mol
A47G: 0.745 kcal/mol
A47E: 1.16 kcal/mol
D56R: 1.45 kcal/mol
S81G: 0.481 kcal/mol

Study 4 — target: CCNE2, cyclin fold, Cln2 fusion (human); technique: yeast growth competition, sequencing; matrix: yeast; setting: weak parent motif; relative to: not given; direction: higher = stronger binding; endpoint: normalised enrichment score
Starting sequence: BORA docking peptide (human); SSLRRKLFLDGNG
SSLRRKLLLDGNG [F8L]: 0.925
SSLRRKAFLDGNG [L7A]: -0.134
SALRRKLFLDGNG [S2A]: 1.03
ASLRRKLFLDGNG [S1A]: 1.01
SSLARKLFLDGNG [R4A]: 0.349
SSLRKKLLLDGNG [R5K F8L]: 0.588
SSLRRKLFLDANG [G11A]: 1.46
SSLRKKLFLDGNG [R5K]: 1.07
SSLRRKLALDGNG [F8A]: 0.835
SSARRKLFLDGNG [L3A]: 3.08
SSLRAKAFLDGNG [R5A L7A]: -0.276

Study 5 — target: DBP, bZIP domain (human); technique: DHFR protein complementation; matrix: yeast; relative to: wild-type JUN-FOS pair; direction: higher = stronger binding; endpoint: binding fitness
Setting: single substitutions, most at no-binding floor
Starting sequence: JUN, bZIP domain (human); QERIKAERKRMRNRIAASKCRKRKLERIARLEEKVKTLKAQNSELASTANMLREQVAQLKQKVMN; partner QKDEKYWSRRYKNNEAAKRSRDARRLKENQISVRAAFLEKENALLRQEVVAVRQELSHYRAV
N42F: -1.5 natural log
S43P: -1.46 natural log
L52H: -1.51 natural log
T48P: -1.5 natural log
T48C: -1.45 natural log
T48N: -1.23 natural log
E44K: -1.48 natural log
A46C: -1.51 natural log
S43G: -1.31 natural log
Q55W: -1.29 natural log
K39G: -1.47 natural log
L45N: -1.45 natural log
A29S: -1.44 natural log
L38H: -1.55 natural log
V35R: -1.43 natural log
A49K: -1.33 natural log
T48G: -1.45 natural log
A49H: -1.5 natural log

Study 6 — technique: RNA Bind-n-Seq; form: RNA; matrix: in vitro; tested at: 365 nM; relative to: no-protein control; direction: higher = stronger binding; endpoint: RBNS enrichment (R)
Target: RNA binding protein fox-1 homolog 2, RRM domain, GST-SBP tag (RBFOX2, Homo sapiens, UniProt O43251-10, residues 100-194)
Setting: natural RNA segment, single round, ends assumed
All sequences stand within: GGGAGUUCUACAGUCCGACGAUC … UGGAAUUCUCGGGUGCCAA
Target sequence (chain): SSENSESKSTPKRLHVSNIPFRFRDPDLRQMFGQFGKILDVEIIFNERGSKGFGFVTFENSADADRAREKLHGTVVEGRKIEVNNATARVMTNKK
UUCUAGAGGCGUCACUGUAUGUAGUUCAUGGCUACUGUACUGACAGCGAGAGCAUGUCCAUCUGUUGGACAGCACUAUUCUAGAGAACUAAACUGGCUUAACGAGUCACA: 1.23
UCUACCUCUGUCUCUUUAACCAUGCUGUCUCUGGACUGAGCAAGAGGGAGGAGGGAGCCUGCUCACCCCACUCCAGGGCCUUCCCCAGCGGCCACCAACUGACCUGGGGC: 0.394
CCCCACUCCCUGUUCCCUACCCAUAUAGGCCCUAAAUUUGGGAAAAAUCACUAUUAAUUUCUGAAUCCUUUGCCUGUGGGUAGGAAGAGAAUGGCUGCCAGUGGCUGAUG: 0.778
UUUCGAAAUUGUAUCCUUCUGACUCUGCUUCCUGGGUGCUGAAAUUAAAGGCAUGUGCCACUAUGCAAGUUUAUGUGGUGCUGGGCACAGAACCCAGGGCUUAAUGCGUG: 4.4
UGACUGAGCAAUAUGCCUCCUUGUAUUAUAAAAUCUUUCUGAUAAUGCAUUAGAAGGUUUUUUUGUCGAUUAGUAAAAGUGCUUUCCAUGUUACUUUAUUCAGAGCUAAU: 0.327
CAUGCAUGCCUGCACUCCAGAGUCAGGUGCCAAGCUUGCUUGUCCUUCCCUGCCUCCAGGUCAGGGAGCAGCUGCAGUGAGGGUGGGGAGGUGAGGGCUUUGUACACGUG: 9.6
UAGAAUGGCAUCCUGGUCCUGGAUGCAGAUUCUCAAGUAAAAUUGCUGUUAAAUUUCUUCAAGUCCAGAGAAGCAAAUCUUAGUGCGGGCAGACCGAGUUAGUGUUUGAU: 3.12
AGCCAUGGAAGGUUGUGGUUGUAAAUGAGUUGUCUAAAGGGGUGCAGAGGCCUGAGGUUUCUAAAAGAAGGUAGAUUUCUACAGAGCUGAGUGUUGGUUCCUUUUUCUUA: 0.716
CAAAUAAUGUUAAUGUUAUUCAAUCAUUUUCUGAAUUGUUAACUCUUAUUCUUUGGUUUAAAUACUGAAACAUGAUUAAUUGCUAACUACAGCUUAGAAACCCAAUAUCA: 0.309
UUCAGGCUGCCUAAGACAUGUAACGAAACACUUCAAUAAUUGUCCAUGAGGAGAAAAAAAGCAUGUGUCAUGCAUGAAGGAAACUGAACUUGAGGUGGCCUCCUUGCUUG: 3.22
AGAAUCUAACAGGUAUGACACAUUCAGUUAUUCUAACAGGGCACAGUACUGUGCUAUAUGUAGCCGCCUUUACAGAUGUUAUUAACCUAUAGUAGUUUACUAUUAACUAG: 0.326
CCCCCCAAAAUUCAUGUGUUGGAGCCUUAACCCUCAAUGUGAUGGUAUUUGAGAUGGGGCCUUUGGUAAGGGAAGUUUAGAUGAGGUCACGAGGGUAGGACCCUCAUGAU: 0.762

Study 7 — technique: universal PBM; form: double-stranded DNA, one strand shown; matrix: in vitro; tested at: not given; direction: higher = stronger binding; endpoint: E-score
Target: Sal-like protein 4, full length isoform B (SALL4, Homo sapiens, UniProt Q9UJQ4-2, residues 1-616)
Setting: 8-mer, flanks averaged, mean of replicates
Construct (chain): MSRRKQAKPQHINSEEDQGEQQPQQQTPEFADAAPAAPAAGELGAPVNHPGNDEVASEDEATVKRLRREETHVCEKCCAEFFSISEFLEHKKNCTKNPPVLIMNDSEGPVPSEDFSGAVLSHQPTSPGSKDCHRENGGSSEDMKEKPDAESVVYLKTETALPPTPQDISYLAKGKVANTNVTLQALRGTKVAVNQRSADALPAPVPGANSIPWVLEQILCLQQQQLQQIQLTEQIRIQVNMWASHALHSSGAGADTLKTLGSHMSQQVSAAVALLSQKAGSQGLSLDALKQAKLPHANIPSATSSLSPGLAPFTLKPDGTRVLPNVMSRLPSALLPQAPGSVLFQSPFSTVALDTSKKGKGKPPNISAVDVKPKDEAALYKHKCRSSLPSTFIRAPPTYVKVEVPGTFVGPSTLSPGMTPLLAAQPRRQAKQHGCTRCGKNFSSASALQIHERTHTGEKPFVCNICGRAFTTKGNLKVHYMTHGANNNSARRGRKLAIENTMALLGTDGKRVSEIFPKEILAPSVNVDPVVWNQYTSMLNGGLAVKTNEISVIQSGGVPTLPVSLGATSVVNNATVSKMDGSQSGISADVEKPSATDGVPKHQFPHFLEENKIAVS
AATCATAC: 0.274
AGTTAGTG: -0.00668
AGGGGTCA: -0.041
ACCAGTGG: -0.18
CCCATTAG: -0.248
AGCTACAT: 0.0693
GAAAAAGA: 0.0939
TACTCAGA: 0.033
TATGCAGA: 0.245
GCCAAACA: -0.0679
CCGAAATC: 0.0272
CGTCAAAG: -0.0415
CTAACGCA: 0.01
CGATGGGC: -0.284
ACCCACCG: -0.172
GAACTCCA: -0.058
CCATATCC: 0.097
AGACGACT: -0.165
AGATTCTG: -0.0523
AAGTCCCC: -0.159
ACTTACGA: 0.214

Some of these lines once more (study 3):
L89Y: 1.46 kcal/mol
T9W: 0.114 kcal/mol
G45Q: 0.823 kcal/mol
E60A: -0.194 kcal/mol
F25L: 0.794 kcal/mol
S22L: -0.122 kcal/mol
G35R: 0.221 kcal/mol
K92D: -0.0532 kcal/mol
